Results of several laboratories.
Numbered parts are unrelated; each lists some results of a single study. Changes are numbered by the printed parent chain.

Set 1
Target: Centromere-binding protein 1, full length, His-tagged (CBF1, Saccharomyces cerevisiae, UniProt P17106, residues 1-351)
UniProt P17106, sequence (whole entry, looked up): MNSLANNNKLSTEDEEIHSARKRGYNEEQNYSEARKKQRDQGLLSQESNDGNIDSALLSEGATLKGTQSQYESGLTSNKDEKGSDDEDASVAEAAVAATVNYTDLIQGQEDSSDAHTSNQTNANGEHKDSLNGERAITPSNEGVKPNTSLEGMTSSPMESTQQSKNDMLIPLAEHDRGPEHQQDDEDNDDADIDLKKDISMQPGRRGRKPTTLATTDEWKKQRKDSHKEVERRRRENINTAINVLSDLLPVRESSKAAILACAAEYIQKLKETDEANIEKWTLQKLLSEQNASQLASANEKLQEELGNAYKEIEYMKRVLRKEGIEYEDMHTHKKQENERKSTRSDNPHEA
Technique: competition protein-binding microarray
Form: double-stranded DNA, one strand shown
Sample: in vitro
Concentration: 2 µM
Notes: whole 60-bp probe, lowest competitor level
Together with: Pho4 competitor, 0.05 µM
Reading: higher = stronger binding
Constant ends, left off below: … GTCTTGATTCGCTTGACGCTGCTG
Oligonucleotide | fluorescence intensity
GGGTTATCGTAGTGAGTCGTGGCCGCAACGATAGCA | 53.3 a.u.
TTACCCCAACATTACCTCGTGGTGAGTGGAGAATCA | 93.3 a.u.
CATACCCAACCTTGTCACTGTACTTAAGATATTTGT | 68.8 a.u.
AAATTACTAAGTTGCGACGTGGGTGACGCCGTATGA | 54.1 a.u.
GATAATTGAGTGTGTTCGTCATAATTTTTAATAAGG | 84.3 a.u.
AAAGCGGTAATTTTACACGTGTTTTCACATATCTAT | 1530 a.u.
AAAGAAGAAGAAACCTCCGTGGGTAATCGTTTGAAT | 56.8 a.u.
CTTTCCCGATCTTTTCACGTGCCGTTAGCACATTTG | 746 a.u.
CGTCCTAGTGATTGGGTCGTGGGTGCCATGAGGAAG | 76.3 a.u.
TGCGCAACAACTTGTCACTGTACTTTATGTCTAGAA | 83.7 a.u.
GGTTGCGACGGAATCCACGTGCAAAACAACATAGTC | 1010 a.u.
CCTTCGAAGAAGTTGTTCGTGCCAGCCACAACGGAG | 70.5 a.u.
CGTCCTAGTGATTTTCACGTGTGATCCATGAGGAAG | 735 a.u.
TGTTAGCGCAAATGCTACATGACAGGCCAATCGTAG | 67 a.u.
ATACTGTTGTATTTCCGCGTGAAGCCACTTTTAACC | 105 a.u.
CACCACTTCATTCCACCCGTGGTGACGCTGAGACAA | 58.5 a.u.
CGGGGTTAAGTTTGCGAGGTGGGTGGCTTGCAGCAG | 62.4 a.u.
ACAGTTTCCCACTGTCACACTTCACTGTTGCATACT | 98.2 a.u.
ATGGTTGTCTATGCTTCCGTGGGTATCACCAGATTA | 67.9 a.u.
ATTCGCATCTCTGGACACGTGCTTTATGTAGTTGAC | 2590 a.u.
CGTCCTAGTGATTTTCACGTGATATCCATGAGGAAG | 3670 a.u.
AGGGACGAGGGTTGCCACGAGGAGGTAGGAAGGAGC | 83.6 a.u.
AAATTACTAAGTTGTACAGTGGGTGACGCCGTATGA | 88.3 a.u.
CTTTCTGCCAAATTGAACGTGTCGGTCAAGCAATCC | 83.3 a.u.
TGGAATCGAGTGTCGCAATAGACCAAACTGAAGTAC | 66.5 a.u.

Set 2
Target: RNA binding protein fox-1 homolog 2, RRM domain, GST-SBP tag (RBFOX2, Homo sapiens, UniProt O43251-10, residues 100-194)
Technique: RNA Bind-n-Seq
Form: RNA
Sample: in vitro
Concentration: 365 nM
Notes: natural RNA segment, single round, ends assumed
Reference: no-protein control
Reading: higher = stronger binding
Constant ends, left off below: GGGAGUUCUACAGUCCGACGAUC … UGGAAUUCUCGGGUGCCAA
Construct (chain): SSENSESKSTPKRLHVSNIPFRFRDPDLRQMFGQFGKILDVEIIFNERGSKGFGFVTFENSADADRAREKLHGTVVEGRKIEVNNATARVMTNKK
Oligonucleotide | RBNS enrichment (R)
CUGAGAAUUCCUGUUACAGUAAACAAAACUAACGUAAUCUACCAUUUCCUACACUAUUUGAGCAUGGAAAUCAUAGUCCCCACUCUGUGAAAACUUAACGCUUUUUGGAA | 0.616
GUGGCUCAGUUAAGGAAUGAGAAGAUAGAGGGUCCUCCACUUUCAGCUCAUGCUUUUUUAUGUAGGACUAGCUUACCUGAUUUUAAUGAAAAUCACAUUUUGAUACAAAC | 0.382
AACCAAAUGUCCCAGACUCUCUUCAUGCCUCAGCCUUGCAGUGUAGCAUAGGUCUCUCUCUGCACAGUGUUGGUUCCUCCAGCCUAACCUUUGGCUUUGGGAAGGAAGAG | 0.372
GCUACAUAGCAAGAGCCUGUCUCAAAACAAACGAACCUAUGAAGAGCCAGGCAGUCUAUCUAUUUACAUGGCAGUAUACUAGAGAAACUCAGGAAGCAAGAGUGUUCAUC | 0.718
UCAUGCAUGGAUCUUUAUGCAAUUUUUUUCCACUACCCAAGGUCUACCUUAGAUACUAGUUGUCUGAAUUGAGUUACUUUGAUAGGAAAAAUACUUCAUUACCUAAAAUC | 1.37
CCAUCAAUAAAGAUGUCCAGGCAGUGAGCGUACUUUUUACACCCUGUAGAAUUGUGGGCUGUAGCGUUACUCUGAUUUUCUGUCUAGUAUCAGAGAAUGCUGGUAGCUUA | 0.223
GCUGAGAAGGAGAGUCACAGGUCCUGGAGAUAGAAAUGGAGGUGGCCUGCUGAUAAGAUACCUGCUGGUGAGCCCUGAUGUGGGACAUACGUGCAGAUAGGGGGCAGGGU | 1.01
CUUUUCUACAGACCUCAUCACUGGAUUUGCCAACUAGAAUUCGAUUUCCUGUCAUAGGAAGCUCCUUGGAAGAAGGGAUGGGGGGAUGAGAUCAUGUUUACAGACCUGUU | 0.399
GAGGUGCUCUUCAAAUCUCCCUUAGGGGCUGCAUACCUCCCCAGGUAAUCAAGCACGGAUCUUCUCAGCCAAGCCCAUUUCCUGCCCUGAGGUUUGGGAGUGGGAUAAGG | 0.301
GUUUCUCCAGUGGCUUAGCUCCUGUUCCUUUGGGUGAUCACUAGCACCCAUUUUUGAGAAAGCUGGUUCUACAUGGGGGGAUAGCUGUGGAAUAGAUAAUUUGCUGCAUG | 9.87
AACCGUAGCAGCAUGCGAAGCAGGGCUGUGAACUAUCACCACACAGUGCAUUGUCCCGUGGAGGUGUGACACGGGAGACACACGUGUGGAUCAUGUGAUCAUUGUGAACA | 4.49
GUAUGUAUUCAUAUAUUAUUUUUCAUUUUAUUAUUAAGUAAAAGAUAAUUAAAAGUGAAAUUAAAAAUCUUGUAGUUUUUGAUGAAUCUGGAGAUCUAACAUCUGAAUGU | 0.997

Set 3
Target: Sal-like protein 4, full length isoform A (SALL4, Homo sapiens, UniProt Q9UJQ4, residues 1-1053)
UniProt Q9UJQ4, sequence (whole entry, looked up): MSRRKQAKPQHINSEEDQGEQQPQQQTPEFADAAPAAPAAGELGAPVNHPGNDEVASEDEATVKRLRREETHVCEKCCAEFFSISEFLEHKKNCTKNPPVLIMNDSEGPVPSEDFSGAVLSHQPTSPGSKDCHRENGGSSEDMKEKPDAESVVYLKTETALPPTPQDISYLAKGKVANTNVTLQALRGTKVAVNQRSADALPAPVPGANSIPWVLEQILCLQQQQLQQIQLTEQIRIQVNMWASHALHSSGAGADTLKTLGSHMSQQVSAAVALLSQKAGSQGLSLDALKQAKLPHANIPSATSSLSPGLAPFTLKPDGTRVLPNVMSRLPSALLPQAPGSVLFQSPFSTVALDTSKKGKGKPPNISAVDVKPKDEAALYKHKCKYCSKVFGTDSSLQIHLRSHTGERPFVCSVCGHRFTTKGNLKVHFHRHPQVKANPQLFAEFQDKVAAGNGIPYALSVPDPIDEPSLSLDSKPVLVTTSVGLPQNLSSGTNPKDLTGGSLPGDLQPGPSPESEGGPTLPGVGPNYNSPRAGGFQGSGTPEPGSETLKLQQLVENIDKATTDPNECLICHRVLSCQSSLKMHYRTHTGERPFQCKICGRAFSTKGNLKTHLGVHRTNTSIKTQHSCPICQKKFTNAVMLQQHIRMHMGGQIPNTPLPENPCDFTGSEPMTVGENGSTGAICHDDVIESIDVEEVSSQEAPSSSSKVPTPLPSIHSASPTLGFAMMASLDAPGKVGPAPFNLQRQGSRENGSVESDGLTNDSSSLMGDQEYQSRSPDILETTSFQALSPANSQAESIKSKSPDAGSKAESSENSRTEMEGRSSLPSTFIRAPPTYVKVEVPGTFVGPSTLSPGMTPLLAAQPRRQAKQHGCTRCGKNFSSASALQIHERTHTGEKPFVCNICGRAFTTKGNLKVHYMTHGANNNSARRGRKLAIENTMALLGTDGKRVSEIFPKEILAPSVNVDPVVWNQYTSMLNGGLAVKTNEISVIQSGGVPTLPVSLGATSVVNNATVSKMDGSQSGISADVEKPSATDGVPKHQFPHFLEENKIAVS
Technique: universal PBM
Form: double-stranded DNA, one strand shown
Sample: in vitro
Concentration: 600 nM
Notes: 8-mer, flanks averaged, mean of replicates
Reading: higher = stronger binding
Oligonucleotide | E-score
CGAGTGTA | 0.00249
CTAGTCTA | 0.0156
ACGCTTAC | -0.127
CATCATGG | -0.0755
CCCGCCTA | -0.0494
AAGAGTGC | -0.15
AATAAGCC | 0.193
ATTGTTAG | 0.257
AGCCGATC | -0.025
CCATTCGA | 0.0517
ACGCTCGC | -0.139
ATGCAAGA | 0.239
CAGCACGG | -0.16
GTAATGGA | 0.164
CTACGTCA | -0.126
CAGGTTAC | -0.0603
AGACTATG | 0.0384
ACAATAGG | 0.16
ACCCTTCT | -0.0218
CAACCCTG | -0.157

Set 4
Target: Interferon regulatory factor 5, full length, phosphomimetic (IRF5, Homo sapiens, UniProt Q13568-2, residues 1-514, K96S/S451D/S453D/S456D/S462D)
Technique: protein-binding microarray
Form: double-stranded DNA, one strand shown
Sample: in vitro
Concentration: 250 nM
Notes: 60-bp whole probe
Together with: salmon DNA 0.4 mg/ml
Reference: random background probes
Reading: higher = stronger binding
Constant ends, left off below: GCCTAGCAC … GTCTTGATTCGCTTGACGCTGCTG
Oligonucleotide | log fluorescence [z-score]
ATATATATATTATATATTTATGTGCTA | 0.978
TTAGATTTCAGTATCGATCAGTGCTAG | 7.91
GGTGTAAGGAACTGAAGTGAGTGCTAG | -0.2
ATGCATGTGCTGTCTCAGAGTGTGCTA | -0.297
GACGGTCTCCTTGTCCTGACGTGCTAG | -0.312
TTAGCTTTCGGGACTGGATTAGTGCTA | 7.78
GGCGGTTTCCTACTGCTGACGTGCTAG | 0.0779
TCAGCTTTCTTTAACTCACTGTGCTAG | 1.12
GACGGTATCGGGACTGGTGACGTGCTA | 1.04
TTAGGACGGGGGTATCGGTTAGTGCTA | 4.64
TTAGATCTCGGGTTTCGATTAGTGCTA | 6.48
TTAGGTATCGGACTGGGCTAGTGCTAG | 1.46
GACGGACTGGATTATCGGGACGTGCTA | 0.354
TCACCTTTATGTACTCTCACTGTGCTA | 0.624
GACGGTATCTTACTGCTGACGTGCTAG | 0.0946
GACGAACTGAGTCTCGTGACGTGCTAG | -0.328
TCAGGTTTCGACTATCGGTTAGTGCTA | 9.25
CCCAGGGTCTGTTTGGGTCTGTGCTAG | -0.831
GACGGTTTCCTTTCCCTGACGTGCTAG | 1.47
TTAGGTATCGGGAGTGGGTTAGTGCTA | 1.75
GAGGATTTCAGTATCGAGACGTGCTAG | 3.03
GACGATATCGGGTTTCGAGTCGTGCTA | 4.28

Set 5
Target: CCNA1, cyclin fold, Cln2 fusion (human)
Technique: yeast growth competition, sequencing
Sample: yeast
Notes: strong parent motif
Reference: not given
Reading: higher = stronger binding
Parent: RBL2 docking peptide (human); STTRRRLFVENDS
Substitution | normalised enrichment score
STTRRRLFSENDS [V9S] | 0.486
STTRRRLSVENDS [F8S] | 0.44
STTRRFLFVENDS [R6F] | 0.726
PTTRRRLFVENDS [S1P] | 0.479
SDTRRRLFVENDS [T2D] | 0.153
STTRRRLFVVNDS [E10V] | 0.651
TTTRRRLFVENDS [S1T] | 0.807
STTRRRLYVENDS [F8Y] | 0.349
STTRRRFFVENDS [L7F] | 0.134
STTRLRLFVENDS [R5L] | 0.228
STTARRLFVENDS [R4A] | 0.763
STTRRRLFVEQDS [N11Q] | 0.53
STTRRRLNVENDS [F8N] | 0.0801
STTRIRLFVENDS [R5I] | 0.24
STQRRRLFVENDS [T3Q] | 0.17
STTRRRLWVENDS [F8W] | 0.261
SYTRRRLFVENDS [T2Y] | 0.572
STTRGRLFVENDS [R5G] | 0.0887
STTRARAFVENDS [R5A L7A] | 0.0521
STTRRRSFVENDS [L7S] | 0.278
STTRRRLFVENDT [S13T] | 0.227
STFRRRLFVENDS [T3F] | 0.368
STTRRRLFVTNDS [E10T] | 0.096
STTRRRLFVPNDS [E10P] | 1.01
STTRHRLFVENDS [R5H] | 0.458

Set 6
Target: Histone acetyltransferase KAT6A, winged helix 2, GST fusion (KAT6A, Homo sapiens, UniProt Q92794, residues 85-181)
Technique: protein binding microarray
Form: double-stranded DNA, one strand shown
Sample: in vitro
Concentration: not given
Notes: 8-mer, flanks averaged, mean of 2 arrays, mostly near background
Reference: not given
Reading: higher = stronger binding
Target sequence (chain): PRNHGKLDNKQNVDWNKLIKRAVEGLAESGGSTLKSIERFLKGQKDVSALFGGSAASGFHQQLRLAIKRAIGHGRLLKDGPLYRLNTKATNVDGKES
Oligonucleotide | E-score
AGTACGTA | -0.0875
GAGGCGTA | 0.0427
AGAAGTTC | -0.226
ATAAAAGA | -0.0864
AGTAGCGA | -0.00287
GGCGAAAA | 0.121
AAGGGCTA | -0.0445
CACCCTCC | 0.143
ACGTTCCT | -0.177
ACATGTAG | -0.162
ATGGTGCA | 0.00475
GTAGGAAC | 0.0316
CCCTGTCG | 0.112
CTCCCTCC | 0.0758
CGTCGCAA | 0.107
ACACGAAA | 0.107
TTCACCAA | 0.0601
AAGTTTCC | 0.0481
ACAGGATG | 0.0122
GCTCAGCC | 0.0274
ACTGAGCA | -0.112
ACCCCACC | 0.238
ACACCTCA | -0.165
GTGTTATA | 0.123
CGCGTCGA | 0.118

A few entries again (set 3):
Oligonucleotide | E-score
ACGCTTAC | -0.127
CATCATGG | -0.0755
CCCGCCTA | -0.0494
AAGAGTGC | -0.15
AATAAGCC | 0.193
ATTGTTAG | 0.257
AGCCGATC | -0.025
CCATTCGA | 0.0517
ACGCTCGC | -0.139
ATGCAAGA | 0.239
CAGCACGG | -0.16
GTAATGGA | 0.164
CTACGTCA | -0.126
CAGGTTAC | -0.0603
AGACTATG | 0.0384
ACAATAGG | 0.16
ACCCTTCT | -0.0218
